Results collected from several papers.
Each numbered part is a random draw from the data of one study; scales do not carry over between parts.
Sequence of UniProt Q13163 (whole entry, looked up): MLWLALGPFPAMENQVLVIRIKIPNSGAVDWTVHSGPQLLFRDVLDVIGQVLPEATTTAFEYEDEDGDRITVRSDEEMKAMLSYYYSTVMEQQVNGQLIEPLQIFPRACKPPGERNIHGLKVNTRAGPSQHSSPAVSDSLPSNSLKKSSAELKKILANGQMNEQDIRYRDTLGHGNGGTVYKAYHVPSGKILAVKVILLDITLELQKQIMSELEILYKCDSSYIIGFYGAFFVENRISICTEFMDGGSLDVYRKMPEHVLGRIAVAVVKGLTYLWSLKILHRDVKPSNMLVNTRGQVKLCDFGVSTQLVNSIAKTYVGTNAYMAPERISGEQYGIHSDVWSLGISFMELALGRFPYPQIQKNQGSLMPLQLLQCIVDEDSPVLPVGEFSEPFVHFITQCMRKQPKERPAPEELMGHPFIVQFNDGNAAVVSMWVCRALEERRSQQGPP
Sequence of UniProt P42336 (whole entry, unmodified, looked up): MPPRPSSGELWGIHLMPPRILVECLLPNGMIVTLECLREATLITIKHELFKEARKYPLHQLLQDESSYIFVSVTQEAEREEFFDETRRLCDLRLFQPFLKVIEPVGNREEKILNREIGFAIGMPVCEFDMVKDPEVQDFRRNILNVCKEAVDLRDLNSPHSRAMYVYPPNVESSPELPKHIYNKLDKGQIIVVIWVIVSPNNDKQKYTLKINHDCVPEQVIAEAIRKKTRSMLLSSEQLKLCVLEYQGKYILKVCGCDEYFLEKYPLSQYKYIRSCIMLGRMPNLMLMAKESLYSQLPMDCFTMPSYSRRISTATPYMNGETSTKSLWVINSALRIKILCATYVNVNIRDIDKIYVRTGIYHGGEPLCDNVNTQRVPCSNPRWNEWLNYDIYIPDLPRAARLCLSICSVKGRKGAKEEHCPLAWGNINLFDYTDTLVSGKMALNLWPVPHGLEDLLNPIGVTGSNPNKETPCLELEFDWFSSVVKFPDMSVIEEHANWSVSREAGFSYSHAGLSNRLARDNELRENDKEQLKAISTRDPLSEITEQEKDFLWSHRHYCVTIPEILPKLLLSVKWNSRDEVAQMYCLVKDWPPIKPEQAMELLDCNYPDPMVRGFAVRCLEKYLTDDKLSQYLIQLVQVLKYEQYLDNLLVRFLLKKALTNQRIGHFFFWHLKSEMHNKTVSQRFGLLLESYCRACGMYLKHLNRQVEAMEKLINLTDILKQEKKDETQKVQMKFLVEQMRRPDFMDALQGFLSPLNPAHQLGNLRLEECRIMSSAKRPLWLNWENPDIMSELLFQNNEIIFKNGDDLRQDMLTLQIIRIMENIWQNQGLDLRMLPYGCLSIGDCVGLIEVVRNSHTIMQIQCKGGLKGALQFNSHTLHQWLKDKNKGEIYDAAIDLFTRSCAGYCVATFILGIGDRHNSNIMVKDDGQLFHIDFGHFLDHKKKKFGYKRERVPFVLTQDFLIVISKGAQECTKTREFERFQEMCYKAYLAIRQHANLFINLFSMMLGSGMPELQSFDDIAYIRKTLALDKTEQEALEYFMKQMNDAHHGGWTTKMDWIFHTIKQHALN
Sequence of UniProt P51451 (whole entry, looked up): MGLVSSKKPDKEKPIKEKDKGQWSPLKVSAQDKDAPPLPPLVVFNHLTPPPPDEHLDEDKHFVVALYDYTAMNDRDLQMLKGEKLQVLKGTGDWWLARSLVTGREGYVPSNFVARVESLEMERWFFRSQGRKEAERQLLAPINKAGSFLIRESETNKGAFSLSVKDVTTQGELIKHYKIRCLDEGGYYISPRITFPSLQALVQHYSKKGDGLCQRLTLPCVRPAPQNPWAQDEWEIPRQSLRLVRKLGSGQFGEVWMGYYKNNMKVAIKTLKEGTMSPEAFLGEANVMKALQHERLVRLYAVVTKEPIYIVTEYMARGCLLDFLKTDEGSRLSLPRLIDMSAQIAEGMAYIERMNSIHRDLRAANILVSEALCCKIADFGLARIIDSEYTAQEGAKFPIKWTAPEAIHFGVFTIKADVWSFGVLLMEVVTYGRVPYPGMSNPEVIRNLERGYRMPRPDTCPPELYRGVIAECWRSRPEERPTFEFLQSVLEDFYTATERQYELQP
Sequence of UniProt O43318 (whole entry, looked up): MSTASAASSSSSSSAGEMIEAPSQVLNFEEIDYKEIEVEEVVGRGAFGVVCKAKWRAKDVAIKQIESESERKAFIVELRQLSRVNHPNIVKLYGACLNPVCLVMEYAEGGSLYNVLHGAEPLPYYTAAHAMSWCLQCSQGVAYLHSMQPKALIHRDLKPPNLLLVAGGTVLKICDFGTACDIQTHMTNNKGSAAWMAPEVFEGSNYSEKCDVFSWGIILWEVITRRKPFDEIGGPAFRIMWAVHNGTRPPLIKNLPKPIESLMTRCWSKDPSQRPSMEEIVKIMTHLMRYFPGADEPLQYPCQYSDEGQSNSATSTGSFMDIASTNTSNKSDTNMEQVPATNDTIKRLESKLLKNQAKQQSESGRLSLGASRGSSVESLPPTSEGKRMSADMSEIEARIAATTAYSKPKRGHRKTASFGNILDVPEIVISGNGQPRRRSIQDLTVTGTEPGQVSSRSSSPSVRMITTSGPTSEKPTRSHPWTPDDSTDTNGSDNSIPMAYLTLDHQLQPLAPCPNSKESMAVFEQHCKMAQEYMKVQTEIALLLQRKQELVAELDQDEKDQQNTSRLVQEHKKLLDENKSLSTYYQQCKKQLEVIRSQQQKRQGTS
Sequence of UniProt P15056 (whole entry, looked up): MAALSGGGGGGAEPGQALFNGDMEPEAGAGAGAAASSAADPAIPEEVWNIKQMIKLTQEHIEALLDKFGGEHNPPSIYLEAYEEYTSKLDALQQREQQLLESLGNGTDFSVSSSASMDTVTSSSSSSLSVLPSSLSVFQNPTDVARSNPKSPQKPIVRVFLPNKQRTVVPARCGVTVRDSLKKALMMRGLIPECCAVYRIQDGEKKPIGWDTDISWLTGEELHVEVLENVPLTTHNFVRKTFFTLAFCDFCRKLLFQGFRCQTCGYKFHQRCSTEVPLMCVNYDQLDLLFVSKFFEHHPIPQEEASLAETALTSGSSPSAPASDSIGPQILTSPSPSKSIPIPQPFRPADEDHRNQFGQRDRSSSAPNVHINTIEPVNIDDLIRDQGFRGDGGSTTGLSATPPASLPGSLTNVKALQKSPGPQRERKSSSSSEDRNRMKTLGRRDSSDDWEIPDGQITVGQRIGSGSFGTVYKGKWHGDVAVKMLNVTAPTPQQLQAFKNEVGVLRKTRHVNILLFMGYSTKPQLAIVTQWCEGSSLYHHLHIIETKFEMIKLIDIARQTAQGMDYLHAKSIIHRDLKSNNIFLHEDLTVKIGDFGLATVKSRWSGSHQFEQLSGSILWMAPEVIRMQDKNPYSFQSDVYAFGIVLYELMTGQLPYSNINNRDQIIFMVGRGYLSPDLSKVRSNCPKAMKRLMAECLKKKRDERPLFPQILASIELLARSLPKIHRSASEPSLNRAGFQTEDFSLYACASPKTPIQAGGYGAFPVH

Study 1
SMILES: C[C@@H]1CN(c2ccc(-c3cc(C(=O)NCCOCCOCCOCCOCCNC(=O)/C=C/c4[nH]cc(C(=O)N[C@@H](CC(N)=O)c5ccc(F)c(Cl)c5)c4-c4ccc(Cl)cc4F)ccc3F)cc2NC(=O)c2c[nH]c(=O)cc2C(F)(F)F)C[C@H](C)N1C
Observed: thermal unfolding
Technique: differential scanning fluorimetry
Tested at: 5.5 µM
Reading: higher = more unfolded
DCAF1: DDB1- and CUL4-associated factor 1 (DCAF1, Homo sapiens, UniProt Q9Y4B6)
Sequence of UniProt Q9Y4B6 (whole entry, looked up): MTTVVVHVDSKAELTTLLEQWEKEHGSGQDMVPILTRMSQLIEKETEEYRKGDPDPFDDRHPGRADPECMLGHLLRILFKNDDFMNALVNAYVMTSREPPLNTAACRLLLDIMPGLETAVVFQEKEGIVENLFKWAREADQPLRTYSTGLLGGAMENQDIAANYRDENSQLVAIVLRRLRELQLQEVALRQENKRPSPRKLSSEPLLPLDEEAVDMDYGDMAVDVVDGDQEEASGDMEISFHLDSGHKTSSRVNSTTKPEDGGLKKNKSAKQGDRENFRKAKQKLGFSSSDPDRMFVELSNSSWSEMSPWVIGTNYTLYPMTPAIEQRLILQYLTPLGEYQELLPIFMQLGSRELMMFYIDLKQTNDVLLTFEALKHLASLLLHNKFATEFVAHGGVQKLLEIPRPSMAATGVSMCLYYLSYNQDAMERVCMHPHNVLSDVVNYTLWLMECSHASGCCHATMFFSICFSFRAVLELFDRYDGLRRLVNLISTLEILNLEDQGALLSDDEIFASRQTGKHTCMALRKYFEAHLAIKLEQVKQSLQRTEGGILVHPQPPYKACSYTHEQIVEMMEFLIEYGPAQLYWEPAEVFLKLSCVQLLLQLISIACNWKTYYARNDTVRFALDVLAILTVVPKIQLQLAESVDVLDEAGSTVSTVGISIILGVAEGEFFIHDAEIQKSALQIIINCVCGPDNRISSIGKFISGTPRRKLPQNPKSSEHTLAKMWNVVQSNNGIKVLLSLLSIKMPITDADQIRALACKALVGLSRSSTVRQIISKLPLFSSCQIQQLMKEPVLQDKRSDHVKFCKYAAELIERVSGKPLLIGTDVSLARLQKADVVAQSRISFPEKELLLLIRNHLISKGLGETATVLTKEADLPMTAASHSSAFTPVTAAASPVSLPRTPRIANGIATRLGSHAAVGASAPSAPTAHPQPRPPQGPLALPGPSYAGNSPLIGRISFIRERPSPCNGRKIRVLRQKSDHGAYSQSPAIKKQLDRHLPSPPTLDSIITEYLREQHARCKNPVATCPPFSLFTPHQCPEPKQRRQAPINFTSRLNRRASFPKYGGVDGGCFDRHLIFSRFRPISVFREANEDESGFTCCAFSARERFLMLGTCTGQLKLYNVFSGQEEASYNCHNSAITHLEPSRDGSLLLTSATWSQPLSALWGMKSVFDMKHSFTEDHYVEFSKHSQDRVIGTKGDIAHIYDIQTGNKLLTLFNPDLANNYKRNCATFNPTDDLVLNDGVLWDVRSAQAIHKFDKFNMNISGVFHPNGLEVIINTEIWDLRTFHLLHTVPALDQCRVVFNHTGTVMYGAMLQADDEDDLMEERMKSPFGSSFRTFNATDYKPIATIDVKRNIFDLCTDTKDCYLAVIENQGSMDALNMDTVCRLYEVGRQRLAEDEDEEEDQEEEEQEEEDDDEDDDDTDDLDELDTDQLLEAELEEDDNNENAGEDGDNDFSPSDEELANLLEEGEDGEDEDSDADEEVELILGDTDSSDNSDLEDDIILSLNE
WDR5: WD repeat-containing protein 5 (WDR5, Homo sapiens, UniProt P61964)
| target | conditions | SYPRO Orange fluorescence |
| --- | --- | --- |
| DCAF1 | 74.01 °C | 51200 a.u. |
| DCAF1 | 88.21 °C | 36900 a.u. |
| WDR5 | 75.01 °C | 25800 a.u. |
| WDR5 | 84.41 °C | 51400 a.u. |
| DCAF1 | 58.21 °C | 32200 a.u. |
| WDR5 | 60.61 °C | 15500 a.u. |
| WDR5 | 47.4 °C | 15800 a.u. |
| WDR5 | 38.2 °C | 14000 a.u. |
| WDR5 | 26 °C | 13000 a.u. |
| WDR5 | 31.4 °C | 12800 a.u. |
| DCAF1 | 94.21 °C | 30500 a.u. |

Study 2
SMILES: CN(C1COC1)C(C)(C)/C=C(\C#N)C(=O)N1CCC[C@H]1Cn1nc(-c2ccc(Oc3ccccc3)cc2F)c2c(N)ncnc21
Observed: kinase activity
| target | conditions | inhibition [%] |
| --- | --- | --- |
| NEK1 (Homo sapiens, UniProt Q96PY6) | 0.1 µM | 3 |
| MAPK10 (Homo sapiens, UniProt P53779) | 0.1 µM | 4 |
| FYN (Homo sapiens, UniProt P06241) | 0.1 µM | 21 |
| JAK3 (Homo sapiens, UniProt P52333) | 1 µM | 0 |
| BRAF (Homo sapiens, UniProt P15056) | 1 µM | -2 |
| Mitogen-activated protein kinase kinase kinase 7, with TAB1 (MAP3K7, Homo sapiens, UniProt O43318) | 0.1 µM | 5 |
| CHEK2 (Homo sapiens, UniProt O96017) | 0.1 µM | 4 |
| STK10 (Homo sapiens, UniProt O94804) | 1 µM | 5 |
| RPS6KB2 (Homo sapiens, UniProt Q9UBS0) | 1 µM | -2 |
| SGK2 (Homo sapiens, UniProt Q9HBY8) | 0.1 µM | 16 |
| EPHB3 (Homo sapiens, UniProt P54753) | 0.1 µM | 0 |
| MINK1 (Homo sapiens, UniProt Q8N4C8) | 0.1 µM | 7 |
| SRPK1 (Homo sapiens, UniProt Q96SB4) | 1 µM | -1 |
| TEC (Homo sapiens, UniProt P42680) | 0.1 µM | 89 |

Study 3
SMILES: COc1cc(-c2nc3ccc(C(=O)NCCCN(C)C)cc3n2C2CCC2)cc(OC)c1OC
Observed: binding
Technique: competition with immobilised ligand
Tested at: 1 µM
| target | remaining binding |
| --- | --- |
| RIPK4 (Homo sapiens, UniProt P57078) | 36% |
| BLK (Homo sapiens, UniProt P51451) | 84% |
| CHEK1 (Homo sapiens, UniProt O14757) | 86% |
| KIT (Homo sapiens, UniProt P10721, V559D) | 100% |
| WNK4 (Homo sapiens, UniProt Q96J92) | 94% |
| NTRK3 (Homo sapiens, UniProt Q16288) | 85% |
| RIOK2 (Homo sapiens, UniProt Q9BVS4) | 88% |
| PAK2 (Homo sapiens, UniProt Q13177) | 93% |
| ULK2 (Homo sapiens, UniProt Q8IYT8) | 100% |
| Myosin-IIIa (MYO3A, Homo sapiens, UniProt Q8NEV4) | 100% |
| MAPK4 (Homo sapiens, UniProt P31152) | 89% |
| CSNK1A1 (Homo sapiens, UniProt P48729) | 98% |
| RAF1 (Homo sapiens, UniProt P04049) | 78% |
| PRKD1 (Homo sapiens, UniProt Q15139) | 100% |
| Ribosomal protein S6 kinase alpha-2, N-terminal kinase domain (RPS6KA2, Homo sapiens, UniProt Q15349) | 100% |
| MAP2K5 (Homo sapiens, UniProt Q13163) | 76% |
| NEK10 (Homo sapiens, UniProt Q6ZWH5) | 64% |
| BMPR2 (Homo sapiens, UniProt Q13873) | 90% |
| MET (Homo sapiens, UniProt P08581, M1250T) | 90% |

Study 4
SMILES: CC[C@@]1(c2cccc(C(F)(F)F)c2)C2=C(Nc3n[nH]cc31)[C@H](F)C(C)(C)CC2=O (single isomer, unassigned)
Tested at: 1 µM
| target | assay | scale | remaining binding [%] |
| --- | --- | --- | --- |
| MAPK13 (Homo sapiens, UniProt O15264) | binding, competition with immobilised ligand |  | 100 |
| MAP2K5 (Homo sapiens, UniProt Q13163) | kinase binding, KINOMEscan | baseline: DMSO control | 68 |
| WNK2 (Homo sapiens, UniProt Q9Y3S1) | binding, competition with immobilised ligand |  | 100 |
| FLT3 ITD/D835V, human | KINOMEscan |  | 100 |
| DDR1 (Homo sapiens, UniProt Q08345) | kinase binding, KINOMEscan | baseline: DMSO control | 99 |
| ROCK1 (Homo sapiens, UniProt Q13464) | binding, competition with immobilised ligand |  | 93 |
| PIK3CA (Homo sapiens, UniProt P42336, H1047Y) | binding, competition with immobilised ligand |  | 100 |
| EPHA4 (Homo sapiens, UniProt P54764) | binding, competition with immobilised ligand |  | 75 |
| STK35 (Homo sapiens, UniProt Q8TDR2) | binding, competition with immobilised ligand |  | 98 |
| PTK2B (Homo sapiens, UniProt Q14289) | kinase binding, KINOMEscan | baseline: DMSO control | 100 |
| MAPK11 (Homo sapiens, UniProt Q15759) | kinase binding, KINOMEscan | baseline: DMSO control | 100 |
| PIK3CA (Homo sapiens, UniProt P42336, H1047L) | kinase binding, KINOMEscan | baseline: DMSO control | 100 |
| EPHB6 (Homo sapiens, UniProt O15197) | binding, competition with immobilised ligand |  | 90 |
| ANKK1 (Homo sapiens, UniProt Q8NFD2) | kinase binding, KINOMEscan | baseline: DMSO control | 100 |
| BTK (Homo sapiens, UniProt Q06187) | binding, competition with immobilised ligand |  | 100 |
| PRKCH (Homo sapiens, UniProt P24723) | binding, competition with immobilised ligand |  | 100 |
| BMPR1B (Homo sapiens, UniProt O00238) | kinase binding, KINOMEscan | baseline: DMSO control | 100 |
| EPHB2 (Homo sapiens, UniProt P29323) | kinase binding, KINOMEscan | baseline: DMSO control | 100 |
| BMPR1A (Homo sapiens, UniProt P36894) | binding, competition with immobilised ligand |  | 100 |

For quick reference, copied from above (study 4):
| target | assay | scale | remaining binding [%] |
| --- | --- | --- | --- |
| STK35 (Homo sapiens, UniProt Q8TDR2) | binding, competition with immobilised ligand |  | 98 |
| PTK2B (Homo sapiens, UniProt Q14289) | kinase binding, KINOMEscan | baseline: DMSO control | 100 |
| MAPK11 (Homo sapiens, UniProt Q15759) | kinase binding, KINOMEscan | baseline: DMSO control | 100 |
| PIK3CA (Homo sapiens, UniProt P42336, H1047L) | kinase binding, KINOMEscan | baseline: DMSO control | 100 |
| EPHB6 (Homo sapiens, UniProt O15197) | binding, competition with immobilised ligand |  | 90 |
